Results of several laboratories.
Each line is one published result; not all experiments were run side by side. “And” joins repeats or separate records; there may be more than shown. Numbers after ± are the reported error.
Gria2: Glutamate receptor 2 (Gria2, Rattus norvegicus, UniProt P19491)
Chain of UniProt P19491 (whole entry, looked up): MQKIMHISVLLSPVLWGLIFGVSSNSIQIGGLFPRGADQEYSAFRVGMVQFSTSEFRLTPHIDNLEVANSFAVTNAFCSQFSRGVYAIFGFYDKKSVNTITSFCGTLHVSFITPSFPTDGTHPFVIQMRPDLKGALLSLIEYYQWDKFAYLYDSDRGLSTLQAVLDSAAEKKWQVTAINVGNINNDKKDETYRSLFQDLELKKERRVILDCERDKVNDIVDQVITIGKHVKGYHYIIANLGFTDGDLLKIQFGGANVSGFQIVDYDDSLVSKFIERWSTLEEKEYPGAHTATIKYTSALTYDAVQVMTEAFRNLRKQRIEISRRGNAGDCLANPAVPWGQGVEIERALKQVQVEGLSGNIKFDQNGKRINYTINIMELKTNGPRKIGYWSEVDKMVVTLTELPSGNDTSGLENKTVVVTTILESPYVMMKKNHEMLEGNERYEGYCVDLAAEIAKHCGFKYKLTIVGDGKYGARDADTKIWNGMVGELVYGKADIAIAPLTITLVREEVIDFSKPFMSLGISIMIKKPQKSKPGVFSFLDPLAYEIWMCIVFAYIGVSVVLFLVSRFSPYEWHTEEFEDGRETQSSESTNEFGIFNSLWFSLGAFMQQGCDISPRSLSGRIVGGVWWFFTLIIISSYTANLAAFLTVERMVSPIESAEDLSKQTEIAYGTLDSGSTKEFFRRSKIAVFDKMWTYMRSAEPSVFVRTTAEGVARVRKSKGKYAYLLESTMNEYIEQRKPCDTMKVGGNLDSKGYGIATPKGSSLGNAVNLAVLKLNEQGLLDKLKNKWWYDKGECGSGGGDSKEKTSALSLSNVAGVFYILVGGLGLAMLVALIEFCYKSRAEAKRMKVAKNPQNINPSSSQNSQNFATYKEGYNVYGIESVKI
T1: G-quadruplex DNA, G-quadruplex (Homo sapiens); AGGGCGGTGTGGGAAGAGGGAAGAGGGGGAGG
Chain of UniProt P30531 (whole entry, looked up): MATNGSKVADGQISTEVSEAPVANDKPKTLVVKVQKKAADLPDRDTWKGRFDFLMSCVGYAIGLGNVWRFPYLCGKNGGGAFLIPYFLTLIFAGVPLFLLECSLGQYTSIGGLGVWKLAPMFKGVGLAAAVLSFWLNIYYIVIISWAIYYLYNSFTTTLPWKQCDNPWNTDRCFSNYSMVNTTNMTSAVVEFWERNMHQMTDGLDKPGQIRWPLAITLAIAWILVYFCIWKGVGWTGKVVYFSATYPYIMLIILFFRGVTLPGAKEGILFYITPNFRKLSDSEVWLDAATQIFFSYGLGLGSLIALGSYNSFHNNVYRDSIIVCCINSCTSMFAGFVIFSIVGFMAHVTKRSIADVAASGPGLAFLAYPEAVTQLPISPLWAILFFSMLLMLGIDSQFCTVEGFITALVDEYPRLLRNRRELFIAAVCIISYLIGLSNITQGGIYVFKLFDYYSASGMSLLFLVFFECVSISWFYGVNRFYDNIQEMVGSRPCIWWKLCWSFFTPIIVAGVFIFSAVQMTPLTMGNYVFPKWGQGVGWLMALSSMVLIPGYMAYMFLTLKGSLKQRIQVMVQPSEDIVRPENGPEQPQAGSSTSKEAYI
Chain of UniProt P46089 (whole entry, looked up): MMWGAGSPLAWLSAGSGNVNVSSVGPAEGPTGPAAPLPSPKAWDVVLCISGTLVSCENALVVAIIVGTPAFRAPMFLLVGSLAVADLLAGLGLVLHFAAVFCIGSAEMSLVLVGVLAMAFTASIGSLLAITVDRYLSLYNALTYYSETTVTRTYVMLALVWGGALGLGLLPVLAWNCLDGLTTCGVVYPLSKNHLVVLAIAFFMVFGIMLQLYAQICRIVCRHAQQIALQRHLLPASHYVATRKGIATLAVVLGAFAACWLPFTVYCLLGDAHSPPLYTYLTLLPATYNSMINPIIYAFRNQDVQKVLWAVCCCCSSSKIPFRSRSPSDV
Chain of UniProt P35821 (whole entry, looked up): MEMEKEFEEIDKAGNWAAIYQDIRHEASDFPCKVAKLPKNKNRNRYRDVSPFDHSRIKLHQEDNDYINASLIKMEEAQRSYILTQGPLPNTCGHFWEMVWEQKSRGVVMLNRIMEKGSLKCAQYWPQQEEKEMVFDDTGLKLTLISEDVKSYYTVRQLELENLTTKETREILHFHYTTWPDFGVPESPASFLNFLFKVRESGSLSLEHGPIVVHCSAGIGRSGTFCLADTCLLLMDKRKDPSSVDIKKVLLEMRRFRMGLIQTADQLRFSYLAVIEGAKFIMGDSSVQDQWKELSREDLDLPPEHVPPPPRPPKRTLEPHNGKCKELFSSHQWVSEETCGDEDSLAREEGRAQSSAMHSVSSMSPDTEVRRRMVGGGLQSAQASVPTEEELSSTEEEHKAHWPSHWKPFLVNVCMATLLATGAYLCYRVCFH
Chain of UniProt Q00987 (whole entry, looked up): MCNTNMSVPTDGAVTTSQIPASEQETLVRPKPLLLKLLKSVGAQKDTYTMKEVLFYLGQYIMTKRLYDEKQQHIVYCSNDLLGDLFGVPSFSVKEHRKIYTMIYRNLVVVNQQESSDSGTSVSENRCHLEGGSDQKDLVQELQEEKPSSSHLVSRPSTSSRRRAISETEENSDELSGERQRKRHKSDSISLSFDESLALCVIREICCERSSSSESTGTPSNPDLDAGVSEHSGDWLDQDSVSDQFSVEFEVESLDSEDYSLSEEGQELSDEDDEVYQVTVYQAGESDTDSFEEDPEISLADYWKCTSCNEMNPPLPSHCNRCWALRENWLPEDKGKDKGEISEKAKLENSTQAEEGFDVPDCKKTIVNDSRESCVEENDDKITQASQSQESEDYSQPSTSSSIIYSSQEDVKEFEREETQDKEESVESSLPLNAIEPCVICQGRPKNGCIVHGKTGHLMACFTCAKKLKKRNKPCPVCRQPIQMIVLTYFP
Chain of UniProt Q16539 (whole entry, unmodified, looked up): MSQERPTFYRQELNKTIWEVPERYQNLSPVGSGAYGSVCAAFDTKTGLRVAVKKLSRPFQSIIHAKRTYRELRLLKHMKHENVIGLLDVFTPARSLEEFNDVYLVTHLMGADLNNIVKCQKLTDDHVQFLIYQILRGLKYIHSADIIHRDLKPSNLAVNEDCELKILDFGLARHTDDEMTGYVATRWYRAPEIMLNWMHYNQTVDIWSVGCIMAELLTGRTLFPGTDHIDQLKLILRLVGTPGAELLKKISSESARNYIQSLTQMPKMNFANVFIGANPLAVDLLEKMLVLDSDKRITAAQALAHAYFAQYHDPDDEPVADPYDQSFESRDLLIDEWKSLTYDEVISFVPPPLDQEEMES
Chain of UniProt Q9BY41 (whole entry, unmodified, looked up): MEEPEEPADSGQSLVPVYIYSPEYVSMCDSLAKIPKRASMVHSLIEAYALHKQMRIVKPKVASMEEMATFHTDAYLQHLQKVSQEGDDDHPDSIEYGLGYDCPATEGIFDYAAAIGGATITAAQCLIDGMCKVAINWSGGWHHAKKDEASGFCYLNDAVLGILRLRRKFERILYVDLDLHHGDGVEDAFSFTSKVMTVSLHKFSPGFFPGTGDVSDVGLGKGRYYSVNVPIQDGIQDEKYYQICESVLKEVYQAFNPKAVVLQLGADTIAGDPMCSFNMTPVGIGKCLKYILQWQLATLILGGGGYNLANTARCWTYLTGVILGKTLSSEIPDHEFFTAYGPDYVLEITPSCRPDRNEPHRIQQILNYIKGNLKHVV
Chain of UniProt P34972 (whole entry, looked up): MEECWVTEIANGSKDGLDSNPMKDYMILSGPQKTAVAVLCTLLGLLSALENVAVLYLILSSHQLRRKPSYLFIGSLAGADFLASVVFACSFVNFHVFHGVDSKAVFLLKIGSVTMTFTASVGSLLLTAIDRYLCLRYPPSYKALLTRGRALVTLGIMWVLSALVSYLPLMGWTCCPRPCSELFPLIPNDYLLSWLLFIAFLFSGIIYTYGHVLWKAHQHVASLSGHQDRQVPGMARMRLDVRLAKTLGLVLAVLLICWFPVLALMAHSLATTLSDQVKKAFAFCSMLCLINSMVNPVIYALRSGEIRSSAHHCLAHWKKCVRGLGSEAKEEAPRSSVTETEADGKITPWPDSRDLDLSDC
Chain of UniProt P55210 (whole entry, looked up): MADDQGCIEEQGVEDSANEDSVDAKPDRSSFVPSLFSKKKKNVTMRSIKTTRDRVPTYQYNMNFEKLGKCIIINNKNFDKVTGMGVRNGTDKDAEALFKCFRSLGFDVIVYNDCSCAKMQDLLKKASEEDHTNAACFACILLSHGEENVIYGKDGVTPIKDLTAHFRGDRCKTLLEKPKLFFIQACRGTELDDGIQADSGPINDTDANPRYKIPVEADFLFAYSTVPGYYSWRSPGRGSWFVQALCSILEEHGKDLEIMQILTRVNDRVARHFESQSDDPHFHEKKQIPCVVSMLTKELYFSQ
Chain of UniProt Q86Y97 (whole entry, looked up): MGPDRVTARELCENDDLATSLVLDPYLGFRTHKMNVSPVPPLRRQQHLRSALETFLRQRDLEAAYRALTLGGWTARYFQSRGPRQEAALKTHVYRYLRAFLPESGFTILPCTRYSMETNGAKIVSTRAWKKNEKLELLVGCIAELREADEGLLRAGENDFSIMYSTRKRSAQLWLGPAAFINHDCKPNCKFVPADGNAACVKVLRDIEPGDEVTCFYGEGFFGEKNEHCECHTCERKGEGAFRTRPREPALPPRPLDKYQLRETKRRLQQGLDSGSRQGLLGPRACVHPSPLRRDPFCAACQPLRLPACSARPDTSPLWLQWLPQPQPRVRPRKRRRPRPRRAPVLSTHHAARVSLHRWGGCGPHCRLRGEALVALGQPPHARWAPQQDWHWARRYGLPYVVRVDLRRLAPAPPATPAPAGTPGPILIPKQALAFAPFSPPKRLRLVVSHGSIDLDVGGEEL

target | test | system | setting | scale | measurement | result | SMILES
SLC6A1 (Homo sapiens, UniProt P30531) | GABA transport, inhibitor, radioligand uptake | HEK293F transfected | 6.4 nM, 15 min pre, 45 min uptake, room temperature, added: [3H]-GABA 30 nM, GABA 25 µM | higher = more uptake | [3H]-GABA uptake | 4180 a.u. and 1110 a.u. and 4280 a.u. and 1520 a.u. and 1390 a.u. and 1320 a.u. and 1080 a.u. and 1070 a.u. | COc1ccc(C(OCCN2CCCC(C(=O)O)C2)(c2ccc(OC)cc2)c2ccc(OC)cc2)cc1 (stereo not drawn)
KMT5C (Homo sapiens, UniProt Q86Y97) | enzyme activity, inhibitor, radiometric |  | 50 µM |  | inhibition | 79% | CN(C)C/C=C/C(=O)Nc1ccc2nc(NCCCCCN(C)C)nc(NCCCCCCN(C)C)c2c1
Tyrosine-protein phosphatase non-receptor type 1 (Mus musculus, UniProt P35821) | degrader, Western blot | B16-F10 | 0.001 µM |  | remaining protein | 78.7% and 84.7% | Cn1c(=O)n(C2CCC(=O)NC2=O)c2ccc(C3CCN(CC(=O)Nc4cccc(CS(=O)(=O)N5CC[C@H](Nc6cccc(-c7sc(C(=O)O)c(OCC(=O)O)c7Cl)c6)CC5(C)C)c4)CC3)cc21 (stereo partly drawn)
CNR2 (Homo sapiens, UniProt P34972) | radioligand binding |  |  | relative to: CB1 over CB2 (human) | Ki ratio | 6 | CCOC(=O)[C@](CC)(CCCSCCOCCOCCNC(=O)OC(C)(C)C)NC(=O)c1ccc(C2CC2)c(Cc2ccc(F)cc2)n1
MDM2 (Homo sapiens, UniProt Q00987) | fluorescence polarization |  |  |  | Ki | 2500 nM | CC(C)(C)NC(=O)C(c1c(C(=O)O)[nH]c2cc(Cl)ccc12)N(C=O)Cc1ccc(-c2ccccc2)cc1 (stereo not drawn)
GPR3 (Homo sapiens, UniProt P46089) | cAMP reporter | human cells | 100 pM | higher is more cAMP | cAMP luminescence | 33300 a.u. and 17900 a.u. and 23700 a.u. and 50400 a.u. and 42100 a.u. and 61200 a.u. and 30400 a.u. and 51900 a.u. | CC(C)Oc1cc(Cl)ccc1CNc1cc(-c2ccccc2)nc2ncnn12
MTHFD1L (Homo sapiens, UniProt Q6UB35) | competitive isoTOP-ABPP | Ramos soluble proteome | 100 µM, 60 min, added: iodoacetamide probe | relative to: DMSO over compound-treated, higher = stronger cysteine blockade | isoTOP-ABPP competition ratio | 6.3 | CCCCCC(O)/C=C/C=O (stereo not drawn)
Cyclin-dependent kinase 12, with cyclin K (CDK12, Homo sapiens, UniProt Q9NYV4) | enzyme activity, inhibitor |  | 1 µM |  | activity vs control | 98% | CNC(=O)C[C@H](Cc1ccc(C#N)cc1)NC(=O)c1cc(-c2ccc(CN[C@H](C)c3ccc(C)cc3)o2)ccc1Cl
Caspase-7 (CASP7, Homo sapiens, UniProt P55210) | enzyme activity, inhibitor |  |  |  | kinact/KI | 48700 M⁻¹ s⁻¹ | CC(=O)N[C@@H](CO)C(=O)N[C@@H](Cc1ccccc1)C(=O)N[C@@H](C)C(=O)N[C@@H](CC(=O)O)C(=O)COC(=O)c1c(C)cccc1C
Gria2 | glutamate-evoked current, whole-cell patch clamp | HEK-293T | concentration not given, pH 7.4, holding potential -60 mV, added: 10 mM glutamate |  | current amplitude | 719 ± 54 pA | COC(=O)Cc1cc2c(cc1C(=O)c1cccc(I)c1)OCO2
HDAC8 (Homo sapiens, UniProt Q9BY41) | ITC | Tris buffer | pH 7.5 |  | TΔS | 3 kcal/mol | Cc1cc(=O)oc2cc(NC(=O)CCCCCCC(=O)NO)ccc12
T1, G-quadruplex DNA, G-quadruplex (Homo sapiens) | fluorescence turn-on |  |  |  | binding | binds | CN(C)c1ccc(C2=C/C(=C/C=C/c3sc4ccccc4[n+]3C)c3ccccc3O2)cc1
human kinase panel | binding, KINOMEscan |  | 10000 nM, %Ctrl below 10 |  | number of kinases hit | 0 | Cc1ccc(-n2cc(CNC(=O)c3cncc(Br)c3)cn2)cc1
Gria2 | glutamate-evoked current, whole-cell patch clamp | HEK-293T | concentration not given | relative to: glutamate alone | current amplitude ratio | 5.22 ± 0.3 | O=C(O)Cc1cc2c(cc1C(=O)c1cccc(Br)c1)OCO2
MAPK14 (Homo sapiens, UniProt Q16539, C119V) | peptide binding, fluorescence polarization |  | 31.25 µM |  | fraction bound | 0.232 | COC(=O)[C@@]1(Cc2ccccc2)C=C(C(=O)OC(C)(C)C)C(=O)CC1

Repeated from above:
target | test | system | setting | scale | measurement | result | SMILES
SLC6A1 (Homo sapiens, UniProt P30531) | GABA transport, inhibitor, radioligand uptake | HEK293F transfected | 6.4 nM, 15 min pre, 45 min uptake, room temperature, added: [3H]-GABA 30 nM, GABA 25 µM | higher = more uptake | [3H]-GABA uptake | 4180 a.u. and 1110 a.u. and 4280 a.u. and 1520 a.u. and 1390 a.u. and 1320 a.u. and 1080 a.u. and 1070 a.u. | COc1ccc(C(OCCN2CCCC(C(=O)O)C2)(c2ccc(OC)cc2)c2ccc(OC)cc2)cc1 (stereo not drawn)
GPR3 (Homo sapiens, UniProt P46089) | cAMP reporter | human cells | 100 pM | higher is more cAMP | cAMP luminescence | 33300 a.u. and 17900 a.u. and 23700 a.u. and 50400 a.u. and 42100 a.u. and 61200 a.u. and 30400 a.u. and 51900 a.u. | CC(C)Oc1cc(Cl)ccc1CNc1cc(-c2ccccc2)nc2ncnn12
